Results of several laboratories.
Numbered parts are unrelated; each lists some results of a single study.

Set 1 — method: universal PBM; molecule type: double-stranded DNA, one strand shown; sample: in vitro; tested at: 600 nM; direction: higher = stronger binding
Target: Sal-like protein 4, full length isoform A (SALL4, Homo sapiens, UniProt Q9UJQ4, residues 1-1053)
Chain of UniProt Q9UJQ4 (whole entry, looked up): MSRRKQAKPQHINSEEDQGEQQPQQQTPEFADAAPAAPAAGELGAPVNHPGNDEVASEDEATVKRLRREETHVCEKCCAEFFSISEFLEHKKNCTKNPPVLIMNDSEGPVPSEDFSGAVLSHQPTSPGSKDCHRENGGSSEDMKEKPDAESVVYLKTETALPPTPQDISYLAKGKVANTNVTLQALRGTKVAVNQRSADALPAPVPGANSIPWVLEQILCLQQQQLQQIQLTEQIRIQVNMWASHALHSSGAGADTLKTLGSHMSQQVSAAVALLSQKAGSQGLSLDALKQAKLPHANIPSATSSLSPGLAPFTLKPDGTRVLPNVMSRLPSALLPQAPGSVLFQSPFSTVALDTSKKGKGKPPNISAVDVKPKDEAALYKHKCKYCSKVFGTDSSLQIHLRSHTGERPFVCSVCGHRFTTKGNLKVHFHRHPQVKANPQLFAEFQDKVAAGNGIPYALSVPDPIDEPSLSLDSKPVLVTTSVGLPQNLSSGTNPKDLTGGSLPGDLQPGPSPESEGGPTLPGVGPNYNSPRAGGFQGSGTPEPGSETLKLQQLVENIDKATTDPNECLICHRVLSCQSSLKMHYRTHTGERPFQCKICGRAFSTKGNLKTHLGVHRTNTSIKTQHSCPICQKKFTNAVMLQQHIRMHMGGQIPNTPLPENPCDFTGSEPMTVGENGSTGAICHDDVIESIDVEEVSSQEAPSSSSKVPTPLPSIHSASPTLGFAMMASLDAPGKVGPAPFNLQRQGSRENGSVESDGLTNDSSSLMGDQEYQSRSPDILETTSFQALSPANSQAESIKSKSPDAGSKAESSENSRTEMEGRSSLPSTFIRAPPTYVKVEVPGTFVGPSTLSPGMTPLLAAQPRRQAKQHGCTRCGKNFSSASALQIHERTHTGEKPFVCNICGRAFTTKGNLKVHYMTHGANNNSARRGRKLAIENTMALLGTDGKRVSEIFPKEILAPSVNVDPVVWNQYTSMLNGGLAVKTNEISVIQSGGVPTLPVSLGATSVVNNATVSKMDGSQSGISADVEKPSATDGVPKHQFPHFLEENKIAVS
Notes: 8-mer, flanks averaged, mean of replicates
`CCATCAAA` has an E-score of 0.028.
`CCGTTGCC` has an E-score of -0.302.
`CATAGACG` has an E-score of 0.115.
With `GTCACTTA` the E-score was 0.149.
`AGACGTGG` gave an E-score of -0.184.
For `CGGTTCAC`, the E-score was -0.202.
`ACGTAAGG` has an E-score of 0.0498.
For `GGAATTAA`, the E-score was 0.269.
The E-score of `GATCCACC` is reported as -0.198.
With `TGCCGCAA` the E-score was 0.0564.
`ATATCGCA` gave an E-score of 0.107.
`GCCGAGTA` has an E-score of -0.3.
For `GAATCTGC`, the E-score was -0.0764.
`AGTTAGTC` gave an E-score of -0.0388.
With `CGAGCGAA` the E-score was -0.135.
`AACCGAGC` has an E-score of -0.288.
For `ATTTGACA`, the E-score was 0.289.
For `CCCATCCG`, the E-score was -0.197.
`AAAAGGAG` gave an E-score of 0.0399.
`ACGCGACG` has an E-score of -0.209.
The E-score of `CCACGGGC` is reported as -0.396.
The E-score of `ACCAAAGG` is reported as -0.0366.
For `CGCAATGC`, the E-score was -0.167.

Set 2 — method: protein-binding microarray; molecule type: double-stranded DNA, one strand shown; sample: in vitro; tested at: 940 nM top; notes: 60-bp whole probe; together with: salmon DNA 0.4 mg/ml; baseline: random background probes; direction: higher = stronger binding; all sequences stand within: GCCTAGCAC … GTCTTGATTCGCTTGACGCTGCTG
Target: Interferon regulatory factor 5, full length, phosphomimetic (IRF5, Homo sapiens, UniProt Q13568-2, residues 1-514, S451D/S453D/S456D/S462D)
`GACTATTTCGGGTTTCGAGACGTGCTA`: “fitted relative affinity” 2.6 z-score.
Under “fitted relative affinity”, `GTAGGACTGGACTTTCGGTTAGTGCTA` is recorded as 2.32 z-score.
`TTGCCTCTGCTGCTGGCCGCGTGCTAG` — result for “fitted relative affinity”: -0.705 z-score.
For `GACGGTTTCGGTTTCGCGACGTGCTAG`, “fitted relative affinity” read 14.2 z-score.
`GTTGCTCTCCGGGGTCTGTGAGTGCTA` — result for “fitted relative affinity”: 0.325 z-score.
For `TCAGCTCCCTTTCTCTCTGTGTGCTAG`, “fitted relative affinity” read 1.15 z-score.
Under “fitted relative affinity”, `GACGAACTGAGGTATCGAGACGTGCTA` is recorded as 0.516 z-score.
Under “fitted relative affinity”, `TTCGGACTGGGGTATCGGTTAGTGCTA` is recorded as 2.9 z-score.
For `TCAAACATCCCAATGGCACTGTGCTAG`, “fitted relative affinity” read 0.413 z-score.
`TCACAGATGTTTTTCATACTGTGCTAG` — result for “fitted relative affinity”: 0.105 z-score.
`GACGGTTTCCTTTTCCTGACGTGCTAG` — result for “fitted relative affinity”: 2.54 z-score.
Under “fitted relative affinity”, `TTAGGTTTCGGGTTTCGGGTAGTGCTA` is recorded as 10.9 z-score.
`GACGGTATCAGTATCGAGACGTGCTAG` — result for “fitted relative affinity”: 4.12 z-score.
`TTAGGTCTCGGGCTGGGTTAGTGCTAG` — result for “fitted relative affinity”: 1.15 z-score.
`TTAGATCTCACTTTCGATTAGTGCTAG`: “fitted relative affinity” 5.03 z-score.
Under “fitted relative affinity”, `CAGAGCCTCAGTCCTCACACAGTGCTA` is recorded as -0.486 z-score.
For `TTAGATATCAGACTGGATCAGTGCTAG`, “fitted relative affinity” read -0.289 z-score.
`TAACCTTGAACTTTGGCCTCGTGCTAG`: “fitted relative affinity” -0.211 z-score.
For `TTAGGTTTCCTTTTCCTTTCGTGCTAG`, “fitted relative affinity” read 2.07 z-score.

Set 3 — method: RNA Bind-n-Seq; molecule type: RNA; sample: in vitro; tested at: 200 nM; notes: whole 134-nt RNA, ends assumed; together with: 150 mM LiCl; baseline: input library; direction: higher = stronger binding; all molecules: 7-deaza-guanosine replaces G
Target: Ras GTPase-activating protein-binding protein 1, full length (G3BP1, Homo sapiens, UniProt Q13283)
Chain of UniProt Q13283 (whole entry, looked up): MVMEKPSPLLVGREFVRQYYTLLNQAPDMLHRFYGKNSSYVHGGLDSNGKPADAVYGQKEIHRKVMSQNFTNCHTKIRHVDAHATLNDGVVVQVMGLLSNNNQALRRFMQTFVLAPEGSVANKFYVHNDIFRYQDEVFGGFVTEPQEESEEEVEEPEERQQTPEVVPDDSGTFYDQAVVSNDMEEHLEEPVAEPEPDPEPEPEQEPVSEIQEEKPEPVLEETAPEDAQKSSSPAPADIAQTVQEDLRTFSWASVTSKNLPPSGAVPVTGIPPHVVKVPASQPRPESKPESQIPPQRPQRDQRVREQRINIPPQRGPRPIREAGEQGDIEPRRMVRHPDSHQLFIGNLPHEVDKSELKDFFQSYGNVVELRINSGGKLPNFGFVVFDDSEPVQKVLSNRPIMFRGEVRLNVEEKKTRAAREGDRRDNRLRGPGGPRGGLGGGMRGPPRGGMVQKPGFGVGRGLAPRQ
`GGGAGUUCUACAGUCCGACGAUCGCAGGAAGUAAAAACAAAUGGAAAUGCCUCGGAUAGUGGCAGGGGUGGGGGUUGCUAAGGAAAGGGUGGGAUGGGAGUGGGUAAAGAGUUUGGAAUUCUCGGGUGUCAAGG` gave a log2 enrichment of 0.17.
The log2 enrichment of `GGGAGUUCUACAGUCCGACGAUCGCAGGAGGUAAAAACAAAUGGAAAUGCUUCGGAUAGUGGCAGGGGUGGGGGUUGCUAAGGAAAGGGUGGGAUGGGAGUGGGUAAAGAGUUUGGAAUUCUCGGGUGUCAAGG` is reported as -0.185.
`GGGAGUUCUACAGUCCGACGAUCUAACUUUAGAGGAGGAUCUGAUGGAUAUGGCAGUUGACGUGGAUUUGGGGAUGGCUAUAAUGGGUAUGGAGGAGGACCUGGAGGUGGCAAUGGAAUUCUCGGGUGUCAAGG` has a log2 enrichment of -0.156.
With `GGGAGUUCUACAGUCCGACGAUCUCCUGUGCUACACAUCGUAUGUACCGAAUCGGGGAAAAAGGGAAAAAGGGAAAAAGGGGAAAGUAUUAUGUUACGCCGUUCGGAUCUGCAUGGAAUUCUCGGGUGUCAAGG` the log2 enrichment was -0.21.
`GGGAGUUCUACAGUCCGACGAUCCACAGACAACACGCACCCACACAGUCACAGAGGGAAGGGGUUGGGAUGGGGACAGGGUGCACAGCAGGGCGGGGUAGGACCCCAGCCCCUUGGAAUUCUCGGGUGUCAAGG` has a log2 enrichment of -0.0447.
`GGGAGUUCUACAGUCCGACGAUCUCAAGUCCUGUGCUACACAUCGUAUGUACCGAAUCGGGUUUUUGGGUGGGAGGGAAAGUAUUAUGUUACGCCGUUCGGAUCUGCACUUCCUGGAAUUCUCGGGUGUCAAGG` gave a log2 enrichment of -0.64.
The log2 enrichment of `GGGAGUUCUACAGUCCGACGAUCACCAUGCAGGAGGGCAUCUUUGGGAAGUGGGGCAAGGGGGGGAUAGGGAGGGGGGUAACACUUUGGGAACAGGUGGUCCCAGGUCGUUUCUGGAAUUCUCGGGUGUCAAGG` is reported as -0.108.
`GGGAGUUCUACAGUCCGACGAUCUGUCUGCGGACCUGGUUUCAGCGCUGGUGGGACUGCAGCCGGAGGUCAGCCCAGCAGAGACUGCAGCUGGAGAGGGCAGUGCAACACCACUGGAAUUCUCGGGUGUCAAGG` gave a log2 enrichment of 0.835.

Set 4 — method: RNA Bind-n-Seq; molecule type: RNA; sample: in vitro; tested at: 365 nM; baseline: no-protein control; direction: higher = stronger binding
Target: RNA binding protein fox-1 homolog 2, RRM domain, GST-SBP tag (RBFOX2, Homo sapiens, UniProt O43251-10, residues 100-194)
Notes: natural RNA segment, single round, ends assumed
For `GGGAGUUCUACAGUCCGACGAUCUUGGAGAUGGAAUUUCAGGAAGGGAUAUAUUAUUUAAGAUUAUUGUUUAAUUACAAGAAUUUUAAAAGAAUGUAUGAAUUCUGUUUUUUAAUAUAGAAAAUAAUUAUGGAUGGAAUUCUCGGGUGCCAA`, “RBNS enrichment (R)” read 0.682.
Under “RBNS enrichment (R)”, `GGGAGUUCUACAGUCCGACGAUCAAUCAGCCCCUAAUUUCUCCAUGUUUACACUUCAAUCUGCAGGCUUCUUAAAGUGACAGUAUCCCUUAACCUGCCACCAGUGUCCACCCUCCGGCCCCCGUCUUGUAAAAUGGAAUUCUCGGGUGCCAA` is recorded as 0.534.
`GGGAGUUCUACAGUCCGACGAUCAUUUAGGCAGAAGCAAAACAGGAAACCAUCCUUACAAACAUGCUUACCUGCACAUCUGUUUGCAUGGUCAUGUGUACAUUCAAACAUGCACAUAAAGUGAACAAGAAAGUUGGAAUUCUCGGGUGCCAA` — result for “RBNS enrichment (R)”: 0.398.
`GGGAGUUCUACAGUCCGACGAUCCAUUUCAGCACCUCCAAAGGGUCCUAGGAUAUUCUGCCUCUCUCUUCACCCUGUCCCCAGACGGGGGAACCCGUGGGUCAGGCGUGGAUAAGCCUGCGAGAAUACACCCUUGGAAUUCUCGGGUGCCAA`: “RBNS enrichment (R)” 1.23.
`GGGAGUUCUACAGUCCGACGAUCGUUGAUAAUACCGAAGAAGUGAUGCAAAAACAAAAAAUCACAUUACUGAUCAUUGAUAGUAUUACAAAUAAAUGUCUCUUCCUUUCUCUUCCUCCCUUCCUCCCCCUGCCUGGAAUUCUCGGGUGCCAA` — result for “RBNS enrichment (R)”: 0.568.
Under “RBNS enrichment (R)”, `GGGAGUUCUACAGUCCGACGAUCUACUGUGGUCCAGAAAUCAAUGUGUUUGUCUGACAAAAAAAAUAAUAAAAUAAACUGUUUUGAACAGCUUGUUUAGUGUUCUUGUGUUUGCAGAGGCUGGAGUGGGCAAAUGGAAUUCUCGGGUGCCAA` is recorded as 0.555.
Under “RBNS enrichment (R)”, `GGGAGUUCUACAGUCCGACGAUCCACCAAAUAUCUCGCAACUUUAUUUCAUCUGGUGUAAAUCUGAACAUCAACAUAGGAAAACUGUCAUGAGAAAAUGAAAAAGCAUAAACACAGAAGCAACGAGAAAUGUGUGGAAUUCUCGGGUGCCAA` is recorded as 1.43.
`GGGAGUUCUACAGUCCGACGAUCAUGCAACUGAGCAGGGUUAGGGAAACAGGUGUCAAGAAUGAAGAGAAUGGUUUUAUCUCCAAGGUGAUACCAAAAACGAGUCAUGGACGACAGGCCUGGCCUCACACGCCUGGAAUUCUCGGGUGCCAA` — result for “RBNS enrichment (R)”: 0.48.

A few entries again (set 4):
Under “RBNS enrichment (R)”, `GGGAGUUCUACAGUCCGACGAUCCACCAAAUAUCUCGCAACUUUAUUUCAUCUGGUGUAAAUCUGAACAUCAACAUAGGAAAACUGUCAUGAGAAAAUGAAAAAGCAUAAACACAGAAGCAACGAGAAAUGUGUGGAAUUCUCGGGUGCCAA` is recorded as 1.43.
`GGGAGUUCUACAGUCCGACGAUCGUUGAUAAUACCGAAGAAGUGAUGCAAAAACAAAAAAUCACAUUACUGAUCAUUGAUAGUAUUACAAAUAAAUGUCUCUUCCUUUCUCUUCCUCCCUUCCUCCCCCUGCCUGGAAUUCUCGGGUGCCAA` — result for “RBNS enrichment (R)”: 0.568.
`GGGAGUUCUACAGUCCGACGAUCAUGCAACUGAGCAGGGUUAGGGAAACAGGUGUCAAGAAUGAAGAGAAUGGUUUUAUCUCCAAGGUGAUACCAAAAACGAGUCAUGGACGACAGGCCUGGCCUCACACGCCUGGAAUUCUCGGGUGCCAA` — result for “RBNS enrichment (R)”: 0.48.
`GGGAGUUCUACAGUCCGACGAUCAUUUAGGCAGAAGCAAAACAGGAAACCAUCCUUACAAACAUGCUUACCUGCACAUCUGUUUGCAUGGUCAUGUGUACAUUCAAACAUGCACAUAAAGUGAACAAGAAAGUUGGAAUUCUCGGGUGCCAA` — result for “RBNS enrichment (R)”: 0.398.
